Assay results pooled from the literature.
Each line is one published result; not all experiments were run side by side.

Structure (SMILES)	test	test system	setting	scale	plasma concentration
Fc1ccc([C@@H]2CCNC[C@H]2COc2ccc3c(c2)OCO3)cc1	–	healthy human subjects	oral, 20 mg once daily, 6 h post-dose, day 14	–	44.8 ng/mL
CN[C@H](CC(C)C)C(=O)N[C@H]1C(=O)N[C@@H](CC(N)=O)C(=O)N[C@H]2C(=O)N[C@H]3C(=O)N[C@H](C(=O)N[C@H](C(=O)O)c4cc(O)cc(O)c4-c4cc3ccc4O)[C@H](O[C@H]3C[C@](C)(N)[C@@H](O)[C@H](C)O3)c3ccc(c(Cl)c3)Oc3cc2cc(c3O[C@@H]2O[C@H](CO)[C@@H](O)[C@H](O)[C@H]2O[C@H]2C[C@](C)(NCc3ccc(-c4ccc(Cl)cc4)cc3)[C@@H](O)[C@H](C)O2)Oc2ccc(cc2Cl)[C@H]1O	–	human, plasma	intravenous, 1200 mg, 7 days after last dose	–	4240 ng/mL
COC(=O)N[C@H](C(=O)N1CCC[C@H]1c1nc(-c2ccc3c(c2)O[C@@H](c2ccccc2)n2c-3cc3cc(-c4c[nH]c([C@@H]5CCCN5C(=O)[C@@H](NC(=O)OC)C(C)C)n4)ccc32)c[nH]1)C(C)C	–	healthy adult humans, plasma	oral, 50 mg single dose, 24 h, geometric mean, fasted, added: grazoprevir 100 mg fixed-dose combination	–	42.6 nM
CNc1nc(Nc2ccc(-n3cnc(C)n3)c(OC)c2)nc2c1CC[C@H]2c1ccc(F)cc1	–	human	oral, 100 mg once daily, 24 h, day 28, multiple ascending dose, geometric mean	–	297 ng/mL
O.O.O=C(/C=C/c1ccc(Cl)cc1)N[C@@H](Cc1ccccn1)C(=O)NCC(=O)N1CCC(Oc2cc(C(F)(F)F)ncn2)CC1	–	human patients, plasma	dose not given, 24 h, added: docetaxel	relative to: Cmax	≤ 11%
CC(=O)c1c(C)c2cnc(Nc3ccc(N4CCNCC4)cn3)nc2n(C2CCCC2)c1=O	–	human patients	oral, 125 mg once daily, 4 h postdose, added: letrozole 2.5 mg	–	155 ng/mL
CCC[C@H](NC(=O)[C@@H]1[C@H]2CCC[C@H]2CN1C(=O)[C@@H](NC(=O)[C@@H](NC(=O)c1cnccn1)C1CCCCC1)C(C)(C)C)C(=O)C(=O)NC1CC1	–	human	oral, 750 mg three times daily, 8 h, day 10, geometric mean, added: maraviroc 150 mg twice daily	–	1940 ng/mL
COc1cc2c(cc1OC)CN(CCc1ccc(NC(=O)c3cc(OC)c(OC)cc3NC(=O)c3cnc4ccccc4c3)cc1)CC2	LC-MS/MS	human, plasma	intravenous infusion, 2 to 8 mg/kg	–	281 to 1310 ng/mL
C[C@]12C=CC(=O)C=C1CC[C@@H]1[C@@H]2[C@@H](O)C[C@@]2(C)[C@H]1CC[C@]2(O)C(=O)CO	–	human castration-resistant prostate cancer, plasma	10 mg daily, 48 days, sample A patients	–	> 30 nM
Cc1ccccc1C(=O)Nc1ccc(C(=O)N2CCCC(O)c3cc(Cl)ccc32)c(C)c1 (centres unmarked)	–	healthy humans, plasma	oral, 90 mg, 3 h postdose, day 4, added: rosuvastatin	–	409 ng/mL
CN1CCc2nc(C(=O)N[C@@H]3C[C@@H](C(=O)N(C)C)CC[C@@H]3NC(=O)C(=O)Nc3ccc(Cl)cn3)sc2C1	–	human, plasma	60 mg, 24 h, fed, added: dronedarone	–	5.9 ng/mL

For quick reference, copied from above:
Structure (SMILES)	test	test system	setting	scale	plasma concentration
CN1CCc2nc(C(=O)N[C@@H]3C[C@@H](C(=O)N(C)C)CC[C@@H]3NC(=O)C(=O)Nc3ccc(Cl)cn3)sc2C1	–	human, plasma	60 mg, 24 h, fed, added: dronedarone	–	5.9 ng/mL
